Measurements gathered from unrelated publications.
Numbered parts are unrelated; each lists some results of a single study. Changes are numbered by the printed parent chain.

Set 1
Target: UBE2E3 UBC core domain (UniProt Q969T4)
Sequence of UniProt Q969T4 (whole entry, looked up): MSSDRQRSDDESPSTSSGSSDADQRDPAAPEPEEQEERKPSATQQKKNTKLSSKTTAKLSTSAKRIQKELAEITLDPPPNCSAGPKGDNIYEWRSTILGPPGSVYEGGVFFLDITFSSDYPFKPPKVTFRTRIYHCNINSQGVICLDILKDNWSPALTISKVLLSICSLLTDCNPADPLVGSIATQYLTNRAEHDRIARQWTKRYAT
Method: yeast two-hybrid
Matrix: yeast
Setting: mostly zero background
Baseline: not given
Direction: higher = stronger interaction
B1: RNF186 RING domain (UniProt Q9NXI6); chain HSGSTECDLECLVCREPYSCPRLPKLLACQHAFCAICLKLLLCVQDNTWSITCPLCRKVTAVPGGLI
B2: BFAR RING domain (UniProt Q9NZS9); chain GPQISVSEFSCHCCYDILVNPTTLNCGHSFCRHCLALWWASSKKTECPECREKWEGFPKVS
B3: MARCHF1 RING domain (UniProt Q8TCQ1); chain TAPRSQSRLSVCPSTQDICRICHCEGDEESPLITPCRCTGTLRFVHQSCLHQWIKSSDTRCCELCKYDFIMETKLKPLRKWE
B4: RING1 RING domain (UniProt Q06587); chain SPRSLHSELMCPICLDMLKNTMTTKECLHRFCSDCIVTALRSGNKECPTCRKKLVSKRSLR
B5: ZNRF4 RING domain (UniProt Q8WWF5); chain VRTFTWHNDLCAICLDEYEEGDQLKILPCSHTYHCKCIDPWFSQAPRRSCPVCKQSVAATEDSF
B6: TRIM41 RING domain (UniProt Q8WV44); chain PVQTLQEEAVCAICLDYFTDPVSIGCGHNFCRVCVTQLWGGEDEEDRDELDREEEEEDGEEE
B7: HLTF RING domain (UniProt Q14527); chain LILSSGSDEECAICLDSLTVPVITHCAHVFCKPCICQVIQNEQPHAKCPLCRNDIHEDNLLE
Molecule	lacZ reporter activity
LEALSSDFLACKICLEQLRAPKTLPCLHTYCQDCLAQLADGGRVRCPECRETVPVPPEGV (TRIM56 RING domain (UniProt Q9BRZ2))	0
B1 (RNF186 RING domain)	0
B2 (BFAR RING domain)	0
B3 (MARCHF1 RING domain)	0
FDPPLESKYECPICLMALREAVQTPCGHRFCKACIIKSIRDAGHKCPVDNEILLENQLFP (TRAF6 RING domain (UniProt Q9Y4K3))	0
B4 (RING1 RING domain)	0
ASPKIFQKTKCSICNSALELPSVHFLCGHSFHQHCFESYSESDADCPTCLPENRKVMDMI (VPS11 RING domain (UniProt Q9H270))	0
EIKEYKARLTCPCCNTRKKDAVLTKCFHVFCFECVRGRYEARQRKCPKCNAAFGAHDFHR (RNF40 RING domain (UniProt O75150))	0
B5 (ZNRF4 RING domain)	14700
B6 (TRIM41 RING domain)	0
B7 (HLTF RING domain)	0

Set 2
Target: MAFF, bZIP domain (human)
Method: DHFR protein complementation
Matrix: yeast
Setting: single substitutions, most at no-binding floor
Baseline: wild-type JUN-FOS pair
Direction: higher = stronger binding
Starting sequence: JUN, bZIP domain (human); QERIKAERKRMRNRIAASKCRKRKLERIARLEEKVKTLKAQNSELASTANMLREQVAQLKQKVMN; partner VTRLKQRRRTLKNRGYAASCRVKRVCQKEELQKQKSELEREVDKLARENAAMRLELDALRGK
Substitution	binding fitness [natural log]
A29R	-1.33
R30T	-1.53
N42K	-0.477
A40R	-1.43
I28Y	-1.51
E44H	-1.37
M51A	-1.39
Q55I	-1.45
L38E	-1.32
R30I	-1.42
A49W	-1.48
A29M	-1.44
Q58P	-1.41
K34A	-1.29

Set 3
Target: Interferon regulatory factor 5, full length, phosphomimetic (IRF5, Homo sapiens, UniProt Q13568-2, residues 1-514, S451D/S453D/S456D/S462D)
Method: protein-binding microarray
Molecule type: double-stranded DNA, one strand shown
Matrix: in vitro
Tested at: 940 nM top
Setting: 60-bp whole probe
Together with: salmon DNA 0.4 mg/ml
Baseline: random background probes
Direction: higher = stronger binding
All sequences stand within: GCCTAGCAC … GTCTTGATTCGCTTGACGCTGCTG
Sequence	fitted relative affinity
TTAGGTTTCCCTATCCTTTAGTGCTAG	2.62 z-score
GACGATTTCCGTATCGAGACGTGCTAG	1.36 z-score
TCAGATATGCGGTAAGGGACTGTGCTA	-0.334 z-score
AGGCAGGCATAAAGGAAAAAGTGCTAG	-0.552 z-score
GACGGTTTTGACACTGGGGACGTGCTA	0.736 z-score
TTAGGACTGCTTCTCGTTTAGTGCTAG	0.182 z-score
GACGGACTGCTTAACCTGACGTGCTAG	-0.396 z-score
GTAGGTTTCGGTTTCGGTTAGTGCTAG	16.4 z-score
TTAGGTTTCGGACTGTGTTAGTGCTAG	7.36 z-score
GAGGCAAGGAGGGAGAACAGGTGCTAG	-0.862 z-score
TTAGATATCAGTCTCGGTTAGTGCTAG	3.53 z-score
TTAGATTTCAGTCTCGAATAGTGCTAG	1.76 z-score
TCATGTGTGCATCTATCACTGTGCTAG	-0.169 z-score
TTAGGTTTCGGACTGGGCTAGTGCTAG	6.95 z-score
TTAGGACTGGACACTGGGTTTGTGCTA	-0.226 z-score
ATAGGTATCGGGTATCGGTTAGTGCTA	6.38 z-score
TCACTTCCCCTCTCTTTCACTGTGCTA	1.83 z-score
TTAGATATCAGTTTGGATTAGTGCTAG	0.0219 z-score
TTAGGTTTCGACTATCGGTGAGTGCTA	9.82 z-score
TTGGTTCTGATCCTTCCCCTCGTGCTA	0.466 z-score

Set 4
Target: CCNF, cyclin fold, Cln2 fusion (human)
Method: yeast growth competition, sequencing
Matrix: yeast
Setting: weak parent motif
Baseline: not given
Direction: higher = stronger binding
Starting sequence: MASTL docking peptide (human); PMIAKNLMCELDE
Substitution	normalised enrichment score
M8S	-0.33
I3A	0.143
L7P	-0.32
A4V	-0.105
E10L	0.978
A4M	-0.206
D12M	0.134
E10Y	0.933
L7T	-0.69
C9A	0.341
D12K	0.166
C9F	1.36
L7A	-0.207
M8T	-0.15
I3D	-0.348
M2A	0.173
C9Y	-0.193

Excerpt of the above (set 3):
Sequence	fitted relative affinity
TTAGGTTTCCCTATCCTTTAGTGCTAG	2.62 z-score
GACGATTTCCGTATCGAGACGTGCTAG	1.36 z-score
TCAGATATGCGGTAAGGGACTGTGCTA	-0.334 z-score
AGGCAGGCATAAAGGAAAAAGTGCTAG	-0.552 z-score
GACGGTTTTGACACTGGGGACGTGCTA	0.736 z-score
TTAGGACTGCTTCTCGTTTAGTGCTAG	0.182 z-score
GACGGACTGCTTAACCTGACGTGCTAG	-0.396 z-score
GTAGGTTTCGGTTTCGGTTAGTGCTAG	16.4 z-score
TTAGGTTTCGGACTGTGTTAGTGCTAG	7.36 z-score
GAGGCAAGGAGGGAGAACAGGTGCTAG	-0.862 z-score
